Measured values from different studies.
Each line is one published result; not all experiments were run side by side. “And” joins repeats or separate records; there may be more than shown. ± marks the error that the study gave.
gag-pol integrase: Gag-Pol polyprotein, integrase (gag-pol, Human immunodeficiency virus type 1 group M subtype B, UniProt P04585)
GRK2: Beta-adrenergic receptor kinase 1 (GRK2, Homo sapiens, UniProt P25098)
UniProt P25098, sequence (whole entry, looked up): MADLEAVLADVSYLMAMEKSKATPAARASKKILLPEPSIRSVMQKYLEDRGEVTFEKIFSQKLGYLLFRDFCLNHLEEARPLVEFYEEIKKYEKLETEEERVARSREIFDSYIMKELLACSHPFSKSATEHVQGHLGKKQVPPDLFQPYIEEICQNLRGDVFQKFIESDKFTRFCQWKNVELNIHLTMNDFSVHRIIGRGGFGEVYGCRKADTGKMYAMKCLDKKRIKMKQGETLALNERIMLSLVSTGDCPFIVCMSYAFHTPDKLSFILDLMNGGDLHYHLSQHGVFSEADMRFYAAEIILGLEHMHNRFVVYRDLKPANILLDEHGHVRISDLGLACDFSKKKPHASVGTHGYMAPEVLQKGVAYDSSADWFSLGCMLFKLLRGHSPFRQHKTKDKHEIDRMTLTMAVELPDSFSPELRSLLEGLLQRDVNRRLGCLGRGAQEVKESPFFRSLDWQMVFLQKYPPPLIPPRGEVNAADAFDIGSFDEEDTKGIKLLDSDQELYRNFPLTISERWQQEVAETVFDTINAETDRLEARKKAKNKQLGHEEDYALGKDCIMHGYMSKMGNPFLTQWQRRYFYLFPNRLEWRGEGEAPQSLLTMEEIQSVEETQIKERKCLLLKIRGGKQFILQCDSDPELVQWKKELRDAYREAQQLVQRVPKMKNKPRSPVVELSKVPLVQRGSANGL
FER: Tyrosine-protein kinase Fer (FER, Homo sapiens, UniProt P16591)
UniProt Q695T7, sequence (whole entry, looked up): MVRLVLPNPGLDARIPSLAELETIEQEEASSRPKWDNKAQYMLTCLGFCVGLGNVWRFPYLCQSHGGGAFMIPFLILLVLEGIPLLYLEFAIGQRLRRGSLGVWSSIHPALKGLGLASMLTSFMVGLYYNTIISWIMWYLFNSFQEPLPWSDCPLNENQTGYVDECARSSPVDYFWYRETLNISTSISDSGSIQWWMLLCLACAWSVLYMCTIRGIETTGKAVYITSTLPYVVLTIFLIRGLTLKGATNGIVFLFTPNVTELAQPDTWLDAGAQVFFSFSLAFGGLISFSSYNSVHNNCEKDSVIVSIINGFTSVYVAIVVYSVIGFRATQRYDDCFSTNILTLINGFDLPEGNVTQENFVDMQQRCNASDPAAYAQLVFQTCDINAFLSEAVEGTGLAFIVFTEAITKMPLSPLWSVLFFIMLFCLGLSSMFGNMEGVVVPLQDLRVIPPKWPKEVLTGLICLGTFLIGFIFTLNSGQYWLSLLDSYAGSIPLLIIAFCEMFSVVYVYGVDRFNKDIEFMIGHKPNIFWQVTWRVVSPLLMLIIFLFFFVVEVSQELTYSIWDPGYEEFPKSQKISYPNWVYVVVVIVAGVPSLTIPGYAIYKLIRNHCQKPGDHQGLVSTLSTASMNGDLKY
UniProt P16591, sequence (whole entry, looked up): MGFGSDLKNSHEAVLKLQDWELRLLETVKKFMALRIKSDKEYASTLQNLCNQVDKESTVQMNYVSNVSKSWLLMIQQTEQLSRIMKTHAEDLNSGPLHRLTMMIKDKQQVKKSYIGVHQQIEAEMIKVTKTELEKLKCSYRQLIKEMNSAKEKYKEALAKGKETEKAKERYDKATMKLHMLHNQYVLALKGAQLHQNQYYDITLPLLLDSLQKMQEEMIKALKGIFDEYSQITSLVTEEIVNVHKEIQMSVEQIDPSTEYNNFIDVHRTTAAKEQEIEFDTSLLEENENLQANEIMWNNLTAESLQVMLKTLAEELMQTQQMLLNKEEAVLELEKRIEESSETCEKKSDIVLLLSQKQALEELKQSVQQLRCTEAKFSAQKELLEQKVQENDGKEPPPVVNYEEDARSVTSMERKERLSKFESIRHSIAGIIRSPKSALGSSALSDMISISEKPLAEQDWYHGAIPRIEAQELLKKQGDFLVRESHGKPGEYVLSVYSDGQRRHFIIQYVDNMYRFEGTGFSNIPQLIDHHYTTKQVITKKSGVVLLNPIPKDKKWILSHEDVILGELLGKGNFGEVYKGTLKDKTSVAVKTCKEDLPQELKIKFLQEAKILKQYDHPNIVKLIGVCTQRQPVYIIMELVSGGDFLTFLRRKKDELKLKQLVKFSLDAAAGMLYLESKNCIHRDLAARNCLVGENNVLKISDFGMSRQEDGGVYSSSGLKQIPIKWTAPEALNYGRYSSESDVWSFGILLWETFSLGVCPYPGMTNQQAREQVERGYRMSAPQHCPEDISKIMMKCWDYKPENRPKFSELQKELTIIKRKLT
UniProt Q92626, sequence (whole entry, looked up): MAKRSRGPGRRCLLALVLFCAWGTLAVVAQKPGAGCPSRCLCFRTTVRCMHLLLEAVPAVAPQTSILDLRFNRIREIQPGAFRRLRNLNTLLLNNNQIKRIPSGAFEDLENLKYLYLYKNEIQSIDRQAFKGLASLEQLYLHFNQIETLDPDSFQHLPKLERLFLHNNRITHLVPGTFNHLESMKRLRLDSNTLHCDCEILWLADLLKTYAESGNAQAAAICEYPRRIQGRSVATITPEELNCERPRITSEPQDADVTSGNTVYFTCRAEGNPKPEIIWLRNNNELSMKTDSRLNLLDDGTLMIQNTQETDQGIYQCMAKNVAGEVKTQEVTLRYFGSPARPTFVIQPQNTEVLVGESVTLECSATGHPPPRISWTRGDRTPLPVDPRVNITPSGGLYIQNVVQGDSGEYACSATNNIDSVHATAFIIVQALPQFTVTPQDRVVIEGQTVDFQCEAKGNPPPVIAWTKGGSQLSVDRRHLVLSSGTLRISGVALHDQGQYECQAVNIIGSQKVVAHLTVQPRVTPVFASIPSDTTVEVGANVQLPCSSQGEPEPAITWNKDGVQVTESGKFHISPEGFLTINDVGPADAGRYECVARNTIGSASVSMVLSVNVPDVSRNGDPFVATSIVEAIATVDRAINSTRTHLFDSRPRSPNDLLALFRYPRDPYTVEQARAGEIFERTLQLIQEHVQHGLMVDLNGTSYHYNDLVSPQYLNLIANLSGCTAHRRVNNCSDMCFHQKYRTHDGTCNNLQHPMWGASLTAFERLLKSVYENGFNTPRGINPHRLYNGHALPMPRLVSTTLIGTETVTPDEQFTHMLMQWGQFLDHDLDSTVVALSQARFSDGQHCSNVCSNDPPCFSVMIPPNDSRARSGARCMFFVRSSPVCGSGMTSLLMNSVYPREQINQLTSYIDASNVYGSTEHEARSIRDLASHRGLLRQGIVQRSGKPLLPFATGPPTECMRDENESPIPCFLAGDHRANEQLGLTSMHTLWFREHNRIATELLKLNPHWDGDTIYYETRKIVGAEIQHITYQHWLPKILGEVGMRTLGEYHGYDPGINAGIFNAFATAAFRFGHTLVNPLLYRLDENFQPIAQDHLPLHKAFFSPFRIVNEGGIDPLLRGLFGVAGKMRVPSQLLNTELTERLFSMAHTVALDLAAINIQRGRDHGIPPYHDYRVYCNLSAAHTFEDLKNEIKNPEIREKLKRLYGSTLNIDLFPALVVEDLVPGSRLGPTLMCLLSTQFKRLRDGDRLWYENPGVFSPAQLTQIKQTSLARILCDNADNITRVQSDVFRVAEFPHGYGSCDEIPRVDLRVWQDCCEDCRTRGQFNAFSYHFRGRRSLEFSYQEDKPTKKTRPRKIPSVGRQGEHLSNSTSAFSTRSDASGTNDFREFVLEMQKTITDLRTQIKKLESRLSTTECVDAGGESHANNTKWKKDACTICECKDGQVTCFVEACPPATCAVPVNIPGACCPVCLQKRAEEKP
UniProt P06797, sequence (whole entry, looked up): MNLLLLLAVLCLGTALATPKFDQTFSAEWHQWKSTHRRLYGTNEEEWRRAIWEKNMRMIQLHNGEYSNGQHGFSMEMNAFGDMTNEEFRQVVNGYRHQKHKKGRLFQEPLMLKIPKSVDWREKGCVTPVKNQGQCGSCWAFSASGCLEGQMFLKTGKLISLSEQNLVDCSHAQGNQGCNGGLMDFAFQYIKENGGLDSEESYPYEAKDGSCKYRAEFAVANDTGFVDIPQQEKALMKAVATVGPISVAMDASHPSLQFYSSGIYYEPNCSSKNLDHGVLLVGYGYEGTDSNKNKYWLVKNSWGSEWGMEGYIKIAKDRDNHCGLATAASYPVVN
UniProt Q9BUB5, sequence (whole entry, looked up): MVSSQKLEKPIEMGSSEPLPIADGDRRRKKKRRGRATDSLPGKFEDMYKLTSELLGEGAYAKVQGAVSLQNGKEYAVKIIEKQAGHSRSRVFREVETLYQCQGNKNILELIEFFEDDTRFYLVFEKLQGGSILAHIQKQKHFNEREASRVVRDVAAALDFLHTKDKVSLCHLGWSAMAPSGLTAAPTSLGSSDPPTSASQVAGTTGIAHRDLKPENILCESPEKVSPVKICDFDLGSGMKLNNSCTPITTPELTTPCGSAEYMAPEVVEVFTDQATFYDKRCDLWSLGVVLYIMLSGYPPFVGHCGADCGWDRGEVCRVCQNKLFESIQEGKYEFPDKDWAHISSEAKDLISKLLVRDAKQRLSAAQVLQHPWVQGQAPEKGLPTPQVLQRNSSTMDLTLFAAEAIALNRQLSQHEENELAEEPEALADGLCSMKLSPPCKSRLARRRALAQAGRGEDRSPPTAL
UniProt Q16644, sequence (whole entry, looked up): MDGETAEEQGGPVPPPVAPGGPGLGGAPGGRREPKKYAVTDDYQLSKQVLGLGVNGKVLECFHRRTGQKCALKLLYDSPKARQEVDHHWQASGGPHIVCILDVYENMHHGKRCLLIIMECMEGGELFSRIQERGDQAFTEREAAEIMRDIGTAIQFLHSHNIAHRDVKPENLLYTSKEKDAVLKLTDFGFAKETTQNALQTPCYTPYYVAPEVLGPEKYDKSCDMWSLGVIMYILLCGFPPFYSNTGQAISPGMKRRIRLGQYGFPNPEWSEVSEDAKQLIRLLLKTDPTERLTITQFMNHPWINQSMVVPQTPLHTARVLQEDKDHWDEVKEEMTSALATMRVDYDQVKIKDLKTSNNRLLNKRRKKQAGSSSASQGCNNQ

With `CNc1ncc2c(/C=C/C(=O)N3CCC(OC)CC3)nn(Cc3cccc(C(F)(F)F)c3)c2n1` the remaining activity was 100% (SRPK2 (Homo sapiens, UniProt P78362); kinase activity, inhibitor; 1 µM; relative to: untreated control).
`COc1cc(N2CCN(C)CC2)ccc1Nc1nc(N)n(C(=S)NCc2c(Cl)cccc2Cl)n1` gave a remaining activity of 0.25% (MKNK1 (Homo sapiens, UniProt Q9BUB5); enzyme activity; 10 µM; relative to: control).
`Cc1cc(OCC(=O)NC(C)C)cc(C)c1Cl` has a remaining activity of 0.549 and 0.683 and 0.666 and 0.583 (SLC6A19 (Homo sapiens, UniProt Q695T7); FLIPR membrane potential; CHO-BC; 30 µM, unit not given; relative to: uninhibited).
`COc1ccc(Cn2cc(-c3ccc4c(c3)OCO4)c3ccc(-c4ccc5ccccc5c4)nc32)cc1` gave a remaining activity of 75.9% (gag-pol integrase; strand transfer; HIV-1; 10 µM).
`COc1cc(-c2cncc3c2CN(C)Cc2cc(N4CCNCC4)ccc2-3)cc(OC)c1OC` gave a remaining activity of 92% (GRK2; kinase activity; 1 µM, human enzyme, together with: ATP 10 µM; relative to: DMSO control).
The remaining activity of `COc1ccc(F)cc1C(=O)NCc1ccc(-c2nn([C@@H](C)C(F)(F)F)c(N)c2C(N)=O)cc1` is reported as 58.1 ± 0.7% (HCK (Homo sapiens, UniProt P08631); kinase activity, inhibitor, HotSpot radiometric; 1000 nM, together with: ATP at Km).
With `CCOc1cc(N2CCN(C)CC2)ccc1Nc1nc(N)n(C(=O)NCc2ccccc2S(=O)(=O)C(C)C)n1` the remaining activity was 5.2% (HIPK4 (Homo sapiens, UniProt Q8NE63); enzyme activity; 10 µM; relative to: control).
`Cc1cccc(C)c1C(=O)OCC(=O)[C@H](CCCCN)NC(=O)[C@H](CCCNC(=N)N)NC(=O)OCc1ccccc1` gave a remaining activity of 100% (Procathepsin L (Mus musculus, UniProt P06797); inhibitor; 0.01 µM, room temperature, together with: AMC substrate).
`COc1ccc(-c2ccc3c(-c4ccc(F)cc4F)cn(C)c3n2)cc1` has a remaining activity of 28.4% (gag-pol integrase; strand transfer; HIV-1; 10 µM).
`C=CC(=O)N1CCC[C@@H](n2nc(-c3ccc(Oc4ccccc4)cc3)c3c(N)ncnc32)C1` has a remaining activity of 153% (FER; 1 µM).
For `CC(C)C(=O)Nc1n[nH]c2cc(-c3cccc(NS(=O)(=O)C4CC4)c3)ccc12`, the remaining activity was 22.4% (PIP5K1C (Homo sapiens, UniProt O60331); ADP-Glo; 10 µM; relative to: DMSO).
`C[C@@H](Oc1ccc(S(C)(=O)=O)cc1C(=O)N1C[C@@H]2C[C@]2(c2cc(C(F)(F)F)on2)C1)C(F)(F)F` has a remaining activity of 95.8% (SLC6A9 (Homo sapiens, UniProt P48067, G373S); glycine uptake, inhibitor, [3H]glycine uptake; 0.005 µM, G319S mutant, log concentration 5, together with: [3H]glycine; relative to: no inhibitor).
The remaining activity of `Cc1nnc(C(=O)NC(C)(C)c2nc(C(=O)NCc3ccc(F)cc3)c(O)c(=O)n2C)o1` is reported as 17.9% (gag-pol integrase; strand transfer; HIV-1; 10 µM).
`NC/C(=C\F)COc1cccc(Cn2c(=S)[nH]c(=O)c3[nH]cnc32)c1` has a remaining activity of 69.7% and 69.6% (Peroxidasin homolog (PXDN, Homo sapiens, UniProt Q92626); enzyme activity, inhibitor, Amplex UltraRed; 5 µM; relative to: control).
The remaining activity of `Cc1cc(Nc2cc(N3CCN(C)CC3)nc(Sc3ccc(NC(=O)C4CC4)cc3)n2)[nH]n1` is reported as 99% (MLCK human; kinase activity; 0.03 µM; relative to: control).
With `O=C(O)c1ccc(Nc2ncc3c(n2)-c2ccc(Cl)cc2C(c2c(F)cccc2F)=NC3)cc1` the remaining activity was 109% (GRK5(h); kinase activity; 1 µM).
For `COc1cc(F)ccc1-c1ncnc(Nc2cccc(C[S@](C)(=N)=O)c2)n1`, the remaining activity was 102% (FER; kinase activity; 10 µM, together with: 10 µM ATP).
With `COc1cc(Nc2ncc3c(n2)-c2ccc(Cl)cc2C(c2c(F)cccc2OC)=NC3)ccc1C(=O)O` the remaining activity was 25% (EPHA1; kinase activity; 1 µM).
`Cc1cccc(-c2cn(C)c3nc(Cl)ccc23)c1` has a remaining activity of 80.6% (gag-pol integrase; strand transfer; HIV-1; 10 µM).
For `O=C1NC(=O)/C(=C/c2ccc(-c3ccc(F)cc3O)o2)S1`, the remaining activity was 63% (MAPKAPK3 (Homo sapiens, UniProt Q16644); enzyme activity; 10 µM).
`O=C(NC1CCC1)c1ccc2nc(-c3cccc(NS(=O)(=O)NCCN4CCCCC4)c3)cn2c1` gave a remaining activity of 100% (GRK2; enzyme activity; 10 µM).

Repeated from above:
For `CC(C)C(=O)Nc1n[nH]c2cc(-c3cccc(NS(=O)(=O)C4CC4)c3)ccc12`, the remaining activity was 22.4% (PIP5K1C (Homo sapiens, UniProt O60331); ADP-Glo; 10 µM; relative to: DMSO).
The remaining activity of `Cc1cc(Nc2cc(N3CCN(C)CC3)nc(Sc3ccc(NC(=O)C4CC4)cc3)n2)[nH]n1` is reported as 99% (MLCK human; kinase activity; 0.03 µM; relative to: control).
For `O=C1NC(=O)/C(=C/c2ccc(-c3ccc(F)cc3O)o2)S1`, the remaining activity was 63% (MAPKAPK3 (Homo sapiens, UniProt Q16644); enzyme activity; 10 µM).
